{"data": "Results of several laboratories", "ESR2": "Estrogen receptor beta (ESR2, Homo sapiens, UniProt Q92731)", "note": "Lines come from different studies, so protocols differ. “And” joins repeats or separate records; there may be more than shown. ± gives the spread as reported.", "UniProt P51575, sequence (whole entry, unmodified, looked up)": "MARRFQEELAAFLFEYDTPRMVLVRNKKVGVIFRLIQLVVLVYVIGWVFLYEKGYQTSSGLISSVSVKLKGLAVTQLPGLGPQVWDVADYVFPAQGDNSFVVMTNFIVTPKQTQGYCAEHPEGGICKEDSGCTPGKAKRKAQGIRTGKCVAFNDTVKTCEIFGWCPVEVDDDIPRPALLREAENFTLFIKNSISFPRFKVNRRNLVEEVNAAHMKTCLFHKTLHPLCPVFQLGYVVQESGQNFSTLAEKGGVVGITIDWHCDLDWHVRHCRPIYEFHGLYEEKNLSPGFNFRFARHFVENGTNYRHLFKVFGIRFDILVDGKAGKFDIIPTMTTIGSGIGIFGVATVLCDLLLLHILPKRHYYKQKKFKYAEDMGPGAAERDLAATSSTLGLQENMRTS", "UniProt Q92731, sequence (whole entry, looked up)": "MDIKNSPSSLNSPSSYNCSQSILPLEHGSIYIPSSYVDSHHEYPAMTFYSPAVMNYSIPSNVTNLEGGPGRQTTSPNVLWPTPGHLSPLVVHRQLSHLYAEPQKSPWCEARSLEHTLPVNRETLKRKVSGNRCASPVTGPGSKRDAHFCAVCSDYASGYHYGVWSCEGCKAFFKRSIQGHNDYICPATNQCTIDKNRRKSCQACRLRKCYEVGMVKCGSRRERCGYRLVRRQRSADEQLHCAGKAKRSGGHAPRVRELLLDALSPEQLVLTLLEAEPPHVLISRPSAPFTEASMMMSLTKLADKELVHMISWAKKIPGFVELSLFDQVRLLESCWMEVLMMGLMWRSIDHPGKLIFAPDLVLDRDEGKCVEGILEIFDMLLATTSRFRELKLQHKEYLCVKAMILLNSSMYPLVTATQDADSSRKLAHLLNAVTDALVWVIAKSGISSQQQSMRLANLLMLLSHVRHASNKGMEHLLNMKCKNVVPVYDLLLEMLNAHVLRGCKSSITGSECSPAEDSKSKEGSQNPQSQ"}
{"Structure (SMILES)": "COc1cccc(CNc2ccc(C(=O)O)cc2)c1O", "target or system": "HGF", "assay": "cell viability, resazurin", "setting": "72 h, 10% FBS", "endpoint": "IC50", "value": "> 100000 nM"}
{"Structure (SMILES)": "Cc1cc(C(=O)NC(C)(C)COc2cccc3c2C(N)=NS(=O)(=O)N3)cc(C)n1", "target or system": "human peripheral blood lymphocytes", "assay": "in vitro micronucleus test", "system": "0.2% DMSO", "setting": "1000 µg/mL, 24 h", "endpoint": "micronucleated binucleated cells", "value": "0.3%"}
{"Structure (SMILES)": "COc1ccccc1OCCNCC(O)COc1cccc2[nH]c3ccccc3c12 (centres unmarked)", "target or system": "Nedd8-cullin1 interaction", "assay": "neddylation, AlphaScreen", "setting": "100 µM", "endpoint": "inhibition", "value": "89.8%"}
{"Structure (SMILES)": "CC[C@H](CO)N(CCN(N=O)[C@H](CC)CO)N=O", "target or system": "Salmonella typhimurium", "assay": "plate incorporation", "system": "TA1535, water", "setting": "500 µg/plate, without S9 test 2", "endpoint": "revertant colonies per plate", "value": "18.3 ± 7"}
{"Structure (SMILES)": "Cc1cc(N)c2c(OCC(C)(C)C(=O)NC(C)C)cccc2n1", "target or system": "Salmonella typhimurium", "assay": "reverse mutation, plate incorporation", "system": "TA98", "setting": "1000 µg/plate, with rat liver S9", "endpoint": "mean revertant colonies", "value": "18 colonies/plate"}
{"Structure (SMILES)": "N#Cc1ccc2c(c1)[C@H]1CCCN(C(=O)c3ccc4[nH]cnc4c3)[C@H]1C2", "system": "human females", "setting": "80 mg, day 7", "endpoint": "total testosterone level", "value": "1.6 nmol/L"}
{"Structure (SMILES)": "Cc1cc(Nc2ccc(S(F)(F)(F)(F)F)cc2)n2nc(C(C)(F)F)nc2n1", "target or system": "Plasmodium falciparum", "system": "P. falciparum malaria patients", "setting": "oral, 250 mg", "endpoint": "patients with sinus bradycardia", "value": "0%"}
{"Structure (SMILES)": "CC1CC(OC(=O)C(O)c2ccccc2)CC(C)(C)C1 (centres unmarked)", "target or system": "Nedd8-cullin1 interaction", "assay": "neddylation, AlphaScreen", "setting": "100 µM", "endpoint": "inhibition", "value": "-6.3%"}
{"Structure (SMILES)": "Cc1ccc(CNC(=O)Cn2cc(CSc3nc4ccccc4[nH]3)nn2)cc1", "target or system": "HEK293", "assay": "MTT", "setting": "125 ppm", "endpoint": "viability", "value": "11%"}
{"Structure (SMILES)": "CC(C)=CCc1cc(-c2coc3cc(O)ccc3c2=O)ccc1O", "target or system": "ESR2", "assay": "array formation, agonist", "system": "GFP-ERβ PRL-HeLa", "setting": "1 h", "endpoint": "EC50", "value": "50.4 nM"}
{"Structure (SMILES)": "O=C(Nc1nc2cccc(-c3ccc(CN4CCS(=O)(=O)CC4)cc3)n2n1)C1CC1", "system": "rheumatoid arthritis patients", "setting": "oral, 75 mg once daily, 4 weeks, TEAE regardless of relatedness", "endpoint": "incidence of dizziness", "value": "0%"}
{"Structure (SMILES)": "Cn1cc(Nc2nccc(-c3ccc4c(c3)CN(C3COC3)CC[C@H]4NC(=O)c3cn(C(C)(C)C)nn3)n2)cn1", "system": "human, whole blood", "setting": "50 mg twice daily, day 14", "scale": "reference: pre-dose baseline", "endpoint": "NKT cell count change", "value": "12.7%"}
{"Structure (SMILES)": "CC(C)C(=O)C(=O)[O-].[Na+]", "target or system": "HCT-8", "assay": "Hoechst nuclei count", "setting": "1 mM, 24 h", "scale": "reference: PBS", "endpoint": "host cell number", "value": "0.965 ± 0.08"}
{"Structure (SMILES)": "Nc1ncnc2c1ncn2[C@@H]1O[C@H](COP(=O)(O)CP(=O)(O)OP(=O)(O)O)[C@@H](O)[C@H]1O", "target or system": "P2X purinoceptor 1 (P2RX1, Homo sapiens, UniProt P51575, R292A)", "assay": "calcium influx", "setting": "316 nM", "scale": "reference: ionomycin response", "endpoint": "calcium influx", "value": "0.597% and 0.0554% and 0%"}
{"Structure (SMILES)": "CC(C)=CCc1c(O)ccc(C(=O)/C=C/c2ccc(O)cc2)c1O", "target or system": "ESR2", "assay": "array formation, agonist", "system": "GFP-ERβ PRL-HeLa", "setting": "1 h", "endpoint": "EC50", "value": "174 nM"}
{"Structure (SMILES)": "CC(C)=CCC/C(C)=C/C(=O)O.Cc1cc(/C=C/C#N)cc(C)c1Nc1ccnc(Nc2ccc(C#N)cc2)n1", "system": "Labrasol ALF", "endpoint": "kinetic solubility", "value": "~150 mg/mL"}
{"Structure (SMILES)": "COc1cc(CNc2ccc(C(=O)O)cc2)ccc1O", "target or system": "HGF", "assay": "cell viability, resazurin", "setting": "72 h, 10% FBS", "endpoint": "IC50", "value": "> 100000 nM"}
{"note": "Excerpt of the above:"}
{"Structure (SMILES)": "CC[C@H](CO)N(CCN(N=O)[C@H](CC)CO)N=O", "target or system": "Salmonella typhimurium", "assay": "plate incorporation", "system": "TA1535, water", "setting": "500 µg/plate, without S9 test 2", "endpoint": "revertant colonies per plate", "value": "18.3 ± 7"}
{"Structure (SMILES)": "Cc1ccc(CNC(=O)Cn2cc(CSc3nc4ccccc4[nH]3)nn2)cc1", "target or system": "HEK293", "assay": "MTT", "setting": "125 ppm", "endpoint": "viability", "value": "11%"}
